Results gathered from unrelated publications.
Every numbered part comes from another study and shows a few of its results, in no order.

Set 1
Target: Histone acetyltransferase KAT6A, both winged helices, GST fusion (KAT6A, Homo sapiens, UniProt Q92794, residues 1-181)
Method: protein binding microarray
Form: double-stranded DNA, one strand shown
Sample: in vitro
Concentration: not given
Notes: 8-mer, flanks averaged, mean of 2 arrays, mostly near background
Reference: not given
Reading: higher = stronger binding
Quantity: E-score
Residues (chain): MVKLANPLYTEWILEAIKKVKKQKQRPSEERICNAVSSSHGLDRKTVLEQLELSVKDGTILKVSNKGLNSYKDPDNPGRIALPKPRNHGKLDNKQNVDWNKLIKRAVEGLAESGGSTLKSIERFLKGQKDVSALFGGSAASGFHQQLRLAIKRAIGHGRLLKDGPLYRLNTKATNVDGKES
Strand = AGTGACAA; value = -0.156
Strand = CGACGACG; value = 0.219
Strand = AACGACTT; value = -0.135
Strand = GAGTGGTA; value = -0.116

Set 2
Target: Interferon regulatory factor 5, full length, phosphomimetic (IRF5, Homo sapiens, UniProt Q13568-2, residues 1-514, K96S/S451D/S453D/S456D/S462D)
Method: protein-binding microarray
Form: double-stranded DNA, one strand shown
Sample: in vitro
Concentration: 250 nM
Notes: 60-bp whole probe
With: salmon DNA 0.4 mg/ml
Reference: random background probes
Reading: higher = stronger binding
Quantity: log fluorescence
Strand = GCCTAGCACTTAGATATCGGGTTTTGATTAGTGCTAGTCTTGATTCGCTTGACGCTGCTG; value = 2.42 z-score
Strand = GCCTAGCACCATCCAGCAGAGAGCCTCAGGTGCTAGGTCTTGATTCGCTTGACGCTGCTG; value = -0.55 z-score
Strand = GCCTAGCACTTAGGTCTCCTTATCGTTTAGTGCTAGGTCTTGATTCGCTTGACGCTGCTG; value = 0.568 z-score
Strand = GCCTAGCACGAGGGTATCGACTATCGGGACGTGCTAGTCTTGATTCGCTTGACGCTGCTG; value = 2.86 z-score

Set 3
Target: Prothrombin, mature alpha-thrombin (F2, Homo sapiens, UniProt P00734)
Method: aptamer microarray, sandwich
Form: DNA with 2'F-ANA
Sample: in vitro
Concentration: 200 nM
Notes: whole 15-mer aptamer, many near background
With: Cy3 exosite-II aptamer, 400 nM
Reading: higher = stronger binding
Quantity: mean fluorescence intensity
Strand: GGTTGGTGTGGTTGG
Modification = 2'F-ANA at 1 2 3 4 5 7 10 11 15; value = 47.2 a.u.
Modification = 2'F-ANA at 1 3 6 7 8 9 11 14 15; value = 83.8 a.u.
Modification = 2'F-ANA at 1 2 3 4 6 8 9 10 12 14 15; value = 52.9 a.u.
Modification = 2'F-ANA at 4 8 9 10 15; value = 80.8 a.u.
Modification = 2'F-ANA at 1 3 5 7 9 10 12 13 15; value = 47.2 a.u.

Other studies, line by line
Molecule = PhoQ, residues 284 288 289 292 302 303 ASVMEA; target = PhoP, residues 12 14 15 18 19 AWHSL (Escherichia coli, UniProt P23836); assay = Sort-seq, item: YFP reporter; test system = E. coli; setting = PhoQ-PhoP variant library, with: 10 µM Mg2+; how to read = reference: high Mg2+ state, higher = stronger signaling; quantity = fold induction; value = 3.33
